# Experimental data collected from several papers.
# A part holds a random share of what one study measured. Values joined by “and” are separate records of one study, mostly repeats; a detail may differ.
# Chain of UniProt P9WI81 (whole entry, looked up): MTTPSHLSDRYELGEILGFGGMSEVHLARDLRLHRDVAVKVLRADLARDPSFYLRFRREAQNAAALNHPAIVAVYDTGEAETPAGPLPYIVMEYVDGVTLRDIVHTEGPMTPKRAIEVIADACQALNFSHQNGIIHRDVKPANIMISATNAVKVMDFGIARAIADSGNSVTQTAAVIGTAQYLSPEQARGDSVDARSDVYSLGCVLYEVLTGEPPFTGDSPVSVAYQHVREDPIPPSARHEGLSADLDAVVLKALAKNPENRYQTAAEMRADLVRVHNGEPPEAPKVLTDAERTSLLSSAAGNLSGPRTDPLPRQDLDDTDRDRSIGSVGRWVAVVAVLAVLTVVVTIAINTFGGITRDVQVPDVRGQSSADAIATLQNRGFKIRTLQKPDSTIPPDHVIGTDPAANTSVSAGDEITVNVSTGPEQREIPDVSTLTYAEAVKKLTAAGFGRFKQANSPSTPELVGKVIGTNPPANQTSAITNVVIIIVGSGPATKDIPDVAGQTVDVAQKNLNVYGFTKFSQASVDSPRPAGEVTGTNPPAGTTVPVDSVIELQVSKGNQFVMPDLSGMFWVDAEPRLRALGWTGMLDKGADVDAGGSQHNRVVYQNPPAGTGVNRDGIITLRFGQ
# Chain of UniProt P62344 (whole entry, looked up): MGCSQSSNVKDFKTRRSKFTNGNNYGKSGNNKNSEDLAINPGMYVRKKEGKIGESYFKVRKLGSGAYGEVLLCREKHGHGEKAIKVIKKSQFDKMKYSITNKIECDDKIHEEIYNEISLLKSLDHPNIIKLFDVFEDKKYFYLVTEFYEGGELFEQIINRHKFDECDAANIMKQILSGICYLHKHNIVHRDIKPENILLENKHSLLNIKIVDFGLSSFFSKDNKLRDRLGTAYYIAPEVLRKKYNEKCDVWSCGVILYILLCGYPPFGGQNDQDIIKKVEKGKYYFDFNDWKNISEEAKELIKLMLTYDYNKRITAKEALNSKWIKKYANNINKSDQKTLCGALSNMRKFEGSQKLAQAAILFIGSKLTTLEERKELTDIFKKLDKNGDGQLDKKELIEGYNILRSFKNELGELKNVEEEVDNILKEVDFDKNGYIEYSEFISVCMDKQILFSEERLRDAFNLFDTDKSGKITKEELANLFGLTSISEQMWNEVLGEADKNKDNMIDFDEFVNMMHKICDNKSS

# Study 1
# Target: Leukocyte tyrosine kinase receptor (LTK, Homo sapiens, UniProt P29376)
# Chain of UniProt P29376 (whole entry, looked up): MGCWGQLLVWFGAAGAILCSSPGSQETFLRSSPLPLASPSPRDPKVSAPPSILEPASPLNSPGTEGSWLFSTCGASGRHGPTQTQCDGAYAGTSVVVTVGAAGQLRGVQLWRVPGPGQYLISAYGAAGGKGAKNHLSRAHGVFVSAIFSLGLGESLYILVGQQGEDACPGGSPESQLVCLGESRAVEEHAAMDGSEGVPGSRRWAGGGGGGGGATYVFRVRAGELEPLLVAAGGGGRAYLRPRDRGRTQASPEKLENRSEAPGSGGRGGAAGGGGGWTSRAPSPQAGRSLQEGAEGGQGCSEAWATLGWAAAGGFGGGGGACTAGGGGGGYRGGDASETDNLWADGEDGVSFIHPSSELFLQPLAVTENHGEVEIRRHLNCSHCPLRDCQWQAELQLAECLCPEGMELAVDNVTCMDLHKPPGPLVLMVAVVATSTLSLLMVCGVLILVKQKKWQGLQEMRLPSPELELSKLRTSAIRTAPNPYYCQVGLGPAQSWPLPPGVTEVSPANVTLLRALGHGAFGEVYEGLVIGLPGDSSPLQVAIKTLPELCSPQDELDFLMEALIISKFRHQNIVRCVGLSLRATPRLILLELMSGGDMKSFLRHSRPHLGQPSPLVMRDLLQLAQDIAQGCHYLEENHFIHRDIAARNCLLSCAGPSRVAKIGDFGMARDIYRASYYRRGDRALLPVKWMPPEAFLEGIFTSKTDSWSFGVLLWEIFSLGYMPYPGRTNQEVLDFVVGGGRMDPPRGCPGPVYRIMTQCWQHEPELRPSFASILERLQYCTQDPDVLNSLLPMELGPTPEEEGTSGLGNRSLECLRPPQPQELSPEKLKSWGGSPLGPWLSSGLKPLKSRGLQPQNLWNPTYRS
# Observed: enzyme activity
# Action: inhibitor
# Technique: radiometric
# Tested at: 0.5 µM
Compound,remaining activity [%]
O=c1cc(N2CCOCC2)oc2c1ccc1ccccc12,101
Cn1cc(/C=C2\C(=O)Nc3ccc(S(N)(=O)=O)cc32)c2ccccc21,54.5
Cc1ccc(NC(=O)c2ccc(CN3CCN(C)CC3)cc2)cc1Nc1nccc(-c2cccnc2)n1,100
COc1cc2ncc(-c3ccccc3)nc2cc1OC,97.9
COc1cc2ncnc(N3CCN(C(=O)Nc4ccc(Oc5ccccc5)cc4)CC3)c2cc1OC,89.8
O=C(Nc1ccc(Cl)cc1)c1ccccc1NCc1ccncc1,104
C[S+]([O-])c1ccc(-c2nc(-c3ccncc3)c(-c3ccc(F)cc3)[nH]2)cc1 (stereo not drawn),101
CCN1/C(=C/C(C)=O)Sc2ccc(OC)cc21,87.1
CS(=O)(=O)CCNCc1ccc(-c2ccc3ncnc(Nc4ccc(OCc5cccc(F)c5)c(Cl)c4)c3c2)o1,100
CC(C)[C@H](CO)Nc1nc(Nc2cccc(Cl)c2)c2ncn(C(C)C)c2n1,100

# Study 2
# Structure (SMILES): CC[C@@H](C)c1nc2cc(Nc3ccnc4ccc(S(=O)(=O)C(C)C)cc34)ccc2s1.Cl
cell line,assay,setting,viability
HT-29,"necroptosis protection, CCK-8","5 µM, added: TNF-α SMAC mimetic zVAD",104% and 97.6% and 82.2% and 93.5% and 88%
L929 RIPK3 knockout,,"1.563 µM, added: zVAD",99.1% and 108% and 105% and 104%
L929,CCK-8,25 µM,98.9% and 84.8% and 82.2% and 82.4% and 85.2%
L929 RIPK3 knockout,,"3.125 µM, added: zVAD",95.8% and 108% and 96.9% and 95.5%
HT-29,"necroptosis protection, CCK-8","20 µM, added: TNF-α SMAC mimetic zVAD",97.7% and 83.6% and 86.4% and 98.5%
L929,CCK-8,3.125 µM,104% and 106% and 108%
L929,CCK-8,12.5 µM,112% and 111% and 108% and 113%
L929,CCK-8,"0.781 µM, added: zVAD",98.5% and 93.3% and 99.7% and 100%
L929,CCK-8,100 µM,48.7% and 37.7% and 35.9% and 48.3% and 37.6%
L929 RIPK3 knockout,,"12.5 µM, added: zVAD",108% and 107% and 104% and 94.8%
L929 RIPK3 knockout,,3.125 µM,106% and 103% and 105% and 101%
L929,CCK-8,"12.5 µM, added: zVAD",113% and 112% and 107% and 109%
L929 RIPK3 knockout,,50 µM,38.7% and 38.2% and 45.8% and 46.8%
L929 RIPK3 knockout,,"100 µM, added: zVAD",43.6% and 44.6% and 34.6% and 45.5%
HT-29,"necroptosis protection, CCK-8","0.078 µM, added: TNF-α SMAC mimetic zVAD",20.2% and 20.6% and 12.7% and 19.5% and 21.5%
HT-29,"necroptosis protection, CCK-8","1.25 µM, added: TNF-α SMAC mimetic zVAD",69.5% and 31.9% and 32.9% and 49.7%
L929,CCK-8,0.781 µM,102% and 98.9% and 99.6% and 98.7% and 100%

# Study 3
# Organism: Sarcocystis neurona
# Observed: parasite activity
# Tested at: concentration not given
SMILES,activity class
Cl.O.Oc1ccc2c3c1O[C@H]1c4[nH]c5ccccc5c4C[C@@]4(O)[C@@H](C2)N(CC2CC2)CC[C@]314,inactive
CCN(CC)CCOC(=O)C(O)(c1ccccc1)c1ccccc1.Cl,inactive
CC(NC(C)(C)C)C(=O)c1cccc(Cl)c1.Cl (stereo not drawn),inactive
Cl.Oc1cc2c(cc1O)[C@H]1c3ccccc3CN[C@@H]1CC2,inactive
CN1CC[C@@]23CCCC[C@@H]2[C@@H]1Cc1ccc(O)cc13.O=C(O)C(O)C(O)C(=O)O,inactive
COc1ccc(CCN)cc1OC,inactive
CC(C)CC(N(C)C)C1(c2ccc(Cl)cc2)CCC1.Cl (stereo not drawn),inactive
CCCCC/C=C\C/C=C\C/C=C\C/C=C\CCCC(=O)Nc1ccc(O)cc1,inactive

# Mixed results
# Observed: cell-free assay
# Technique: competition with immobilised ligand
# CRK2: Cyclin-dependent kinase 2 homolog (CRK2, Plasmodium falciparum, UniProt P61075)
# Chain of UniProt P61075 (whole entry, looked up): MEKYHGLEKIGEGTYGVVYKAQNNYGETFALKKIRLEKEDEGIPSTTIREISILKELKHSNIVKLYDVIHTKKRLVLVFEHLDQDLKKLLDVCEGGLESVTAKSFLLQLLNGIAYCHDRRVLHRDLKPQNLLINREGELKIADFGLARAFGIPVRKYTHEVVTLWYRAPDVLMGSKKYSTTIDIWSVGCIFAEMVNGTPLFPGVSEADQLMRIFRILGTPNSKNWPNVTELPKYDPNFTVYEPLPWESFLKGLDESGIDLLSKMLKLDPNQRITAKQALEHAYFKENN
SMILES,target,setting,remaining binding
Cc1c[nH]c2nccc(Oc3c(F)cc(Nc4cc(Cl)nc(N)n4)cc3F)c12,"pknB (Mycobacterium tuberculosis, UniProt P9WI81)",0.1 µM,98%
CCCOc1ccc([C@@H]2[C@@H](C(=O)O)[C@H](c3ccc4c(c3)OCO4)CN2CC(=O)Nc2c(CC)cccc2CC)cc1,"CDPK1 (Plasmodium falciparum, UniProt P62344)",1 µM,64%
O=C(N[C@H]1CCCCC/C=C\C2C[C@@]2(C(=O)O)NC(=O)[C@@H]2C[C@@H](Oc3ccncc3)CN2C1=O)OC1CCCC1 (stereo partly drawn),CRK2,1 µM,78%
CC(=O)N1CCC(c2ccc(C(=O)NC(=N)N)cc2C(F)(F)F)CC1,CRK2,1 µM,100%

# Repeated from above (study 2):
cell line,assay,setting,viability
L929,CCK-8,100 µM,48.7% and 37.7% and 35.9% and 48.3% and 37.6%
L929 RIPK3 knockout,,"12.5 µM, added: zVAD",108% and 107% and 104% and 94.8%
L929 RIPK3 knockout,,3.125 µM,106% and 103% and 105% and 101%
L929,CCK-8,"12.5 µM, added: zVAD",113% and 112% and 107% and 109%
L929 RIPK3 knockout,,50 µM,38.7% and 38.2% and 45.8% and 46.8%
L929 RIPK3 knockout,,"100 µM, added: zVAD",43.6% and 44.6% and 34.6% and 45.5%
